# Assay results collected from several papers.
# Numbered parts are unrelated; each lists some results of a single study.
# Sequence of UniProt P23458 (whole entry, looked up): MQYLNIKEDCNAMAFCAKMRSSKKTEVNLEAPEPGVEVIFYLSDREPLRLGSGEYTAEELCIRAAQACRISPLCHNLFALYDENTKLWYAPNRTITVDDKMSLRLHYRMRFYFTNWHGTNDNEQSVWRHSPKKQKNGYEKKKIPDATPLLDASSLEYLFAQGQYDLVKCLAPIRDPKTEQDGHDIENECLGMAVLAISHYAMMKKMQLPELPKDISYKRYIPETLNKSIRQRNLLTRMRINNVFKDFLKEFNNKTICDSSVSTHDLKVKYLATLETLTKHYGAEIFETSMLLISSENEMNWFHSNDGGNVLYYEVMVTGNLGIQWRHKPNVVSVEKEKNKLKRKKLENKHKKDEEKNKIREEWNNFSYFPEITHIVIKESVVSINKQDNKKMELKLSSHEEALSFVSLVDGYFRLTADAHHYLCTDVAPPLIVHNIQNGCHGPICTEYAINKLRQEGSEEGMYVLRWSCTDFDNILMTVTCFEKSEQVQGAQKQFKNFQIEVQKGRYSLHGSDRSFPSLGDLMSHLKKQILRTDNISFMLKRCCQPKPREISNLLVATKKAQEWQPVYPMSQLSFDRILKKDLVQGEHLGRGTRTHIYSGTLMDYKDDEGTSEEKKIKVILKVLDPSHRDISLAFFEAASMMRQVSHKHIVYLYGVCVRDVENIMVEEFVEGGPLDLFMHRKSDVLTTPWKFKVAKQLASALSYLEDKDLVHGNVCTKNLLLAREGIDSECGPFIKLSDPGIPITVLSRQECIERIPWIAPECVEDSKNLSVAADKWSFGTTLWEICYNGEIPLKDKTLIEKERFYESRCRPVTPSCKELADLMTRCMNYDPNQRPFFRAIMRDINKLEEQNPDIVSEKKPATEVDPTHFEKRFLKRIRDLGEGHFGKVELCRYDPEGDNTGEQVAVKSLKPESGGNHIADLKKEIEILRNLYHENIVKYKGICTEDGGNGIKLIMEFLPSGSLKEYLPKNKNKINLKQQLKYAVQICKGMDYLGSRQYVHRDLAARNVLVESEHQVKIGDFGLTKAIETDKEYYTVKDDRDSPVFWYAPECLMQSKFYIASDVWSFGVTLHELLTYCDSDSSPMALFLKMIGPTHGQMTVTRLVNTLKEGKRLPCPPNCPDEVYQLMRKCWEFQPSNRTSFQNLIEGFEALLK
# Sequence of UniProt Q9UK32 (whole entry, looked up): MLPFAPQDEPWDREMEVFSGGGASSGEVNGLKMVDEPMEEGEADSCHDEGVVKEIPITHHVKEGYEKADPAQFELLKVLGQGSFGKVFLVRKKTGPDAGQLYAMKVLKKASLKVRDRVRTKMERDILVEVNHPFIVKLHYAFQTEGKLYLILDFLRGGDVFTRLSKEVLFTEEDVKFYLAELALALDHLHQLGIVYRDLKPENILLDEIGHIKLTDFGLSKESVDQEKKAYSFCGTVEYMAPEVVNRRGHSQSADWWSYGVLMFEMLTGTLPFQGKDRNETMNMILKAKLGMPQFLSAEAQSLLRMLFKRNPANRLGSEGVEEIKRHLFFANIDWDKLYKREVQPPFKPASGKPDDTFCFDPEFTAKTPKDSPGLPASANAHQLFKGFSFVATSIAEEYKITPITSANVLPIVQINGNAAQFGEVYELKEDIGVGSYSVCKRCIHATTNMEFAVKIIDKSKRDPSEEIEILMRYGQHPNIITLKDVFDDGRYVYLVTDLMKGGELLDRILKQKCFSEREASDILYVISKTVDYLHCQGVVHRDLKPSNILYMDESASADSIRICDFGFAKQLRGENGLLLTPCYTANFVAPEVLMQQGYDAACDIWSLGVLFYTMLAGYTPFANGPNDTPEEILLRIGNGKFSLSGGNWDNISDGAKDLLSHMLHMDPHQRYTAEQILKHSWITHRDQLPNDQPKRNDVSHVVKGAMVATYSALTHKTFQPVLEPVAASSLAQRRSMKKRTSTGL
# Sequence of UniProt P0C1S8 (whole entry, looked up): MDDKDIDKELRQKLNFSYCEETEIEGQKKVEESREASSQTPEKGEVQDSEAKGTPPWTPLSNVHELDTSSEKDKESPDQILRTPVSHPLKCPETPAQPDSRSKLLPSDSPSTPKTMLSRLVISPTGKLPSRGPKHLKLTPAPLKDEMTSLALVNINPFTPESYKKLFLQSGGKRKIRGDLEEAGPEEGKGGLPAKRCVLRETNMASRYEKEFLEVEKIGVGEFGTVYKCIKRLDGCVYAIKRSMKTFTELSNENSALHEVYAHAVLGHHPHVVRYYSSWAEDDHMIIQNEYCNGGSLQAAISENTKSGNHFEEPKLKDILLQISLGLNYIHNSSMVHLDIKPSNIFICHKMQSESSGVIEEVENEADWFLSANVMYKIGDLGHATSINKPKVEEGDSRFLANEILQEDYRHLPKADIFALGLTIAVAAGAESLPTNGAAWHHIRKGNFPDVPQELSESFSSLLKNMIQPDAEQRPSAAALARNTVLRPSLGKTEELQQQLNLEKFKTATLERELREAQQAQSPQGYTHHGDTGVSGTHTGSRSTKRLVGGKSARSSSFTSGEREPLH

# Series 1
# SMILES: Cc1ccc(O)c(C)c1-c1cnc2[nH]c(-c3cnc(N4CCC(CN5CCN(c6ccc(NC7CCC(=O)NC7=O)cc6F)CC5)CC4)nc3)cc2c1C#N (centres unmarked)
# Matrix: plasma
# Route: intravenous
# Dose: 1 mg/kg
system,clearance
male beagle dog,6.1 mL/min/kg
male cynomolgus monkey,7.4 mL/min/kg
male Sprague-Dawley rat,8.6 mL/min/kg

# Series 2
# SMILES: CC[C@@]1(c2cccc(-c3c(F)cncc3OC)c2)C2=C(Nc3n[nH]cc31)[C@H](F)C(C)(C)CC2=O (single isomer, unassigned)
# Tested at: 1 µM
target,test,how to read,remaining binding [%]
"Serine/threonine-protein kinase WNK1 (WNK1, Homo sapiens, UniProt Q9H4A3)","binding, competition with immobilised ligand",,81
"Tyrosine-protein kinase JAK1, JH2 (JAK1, Homo sapiens, UniProt P23458)","binding, competition with immobilised ligand",,74
"Serine/threonine-protein kinase D2 (PRKD2, Homo sapiens, UniProt Q9BZL6)","binding, competition with immobilised ligand",,100
"Maternal embryonic leucine zipper kinase (MELK, Homo sapiens, UniProt Q14680)","binding, competition with immobilised ligand",,100
"Serine/threonine-protein kinase PAK 4 (PAK4, Homo sapiens, UniProt O96013)","binding, competition with immobilised ligand",,100
"Ribosomal protein S6 kinase alpha-6, C-terminal kinase domain (RPS6KA6, Homo sapiens, UniProt Q9UK32)","binding, competition with immobilised ligand",,98
"Insulin receptor-related protein (INSRR, Homo sapiens, UniProt P14616)","binding, competition with immobilised ligand",,90
"Serine/threonine-protein kinase PAK 1 (PAK1, Homo sapiens, UniProt Q13153)","kinase binding, KINOMEscan",reference: DMSO control,95
"Wee1-like protein kinase 2 (WEE2, Homo sapiens, UniProt P0C1S8)","kinase binding, KINOMEscan",reference: DMSO control,74
"Mitogen-activated protein kinase kinase kinase 15 (MAP3K15, Homo sapiens, UniProt Q6ZN16)","kinase binding, KINOMEscan",reference: DMSO control,84
"Epidermal growth factor receptor (EGFR, Homo sapiens, UniProt P00533, del746-750)","binding, competition with immobilised ligand",,86
"FLT3 ITD/F691L, human",KINOMEscan,,65
"Mitogen-activated protein kinase kinase kinase 9 (MAP3K9, Homo sapiens, UniProt P80192)","kinase binding, KINOMEscan",reference: DMSO control,93
"LIM domain kinase 1 (LIMK1, Homo sapiens, UniProt P53667)","binding, competition with immobilised ligand",,92
"Dual specificity protein kinase CLK2 (CLK2, Homo sapiens, UniProt P49760)","binding, competition with immobilised ligand",,53
"Serine/threonine-protein kinase NLK (NLK, Homo sapiens, UniProt Q9UBE8)","kinase binding, KINOMEscan",reference: DMSO control,100
"Homeodomain-interacting protein kinase 1 (HIPK1, Homo sapiens, UniProt Q86Z02)","kinase binding, KINOMEscan",reference: DMSO control,77

# Series 3
# Target: Sodium-dependent neutral amino acid transporter B(0)AT1 (SLC6A19, Homo sapiens, UniProt Q695T7)
# Sequence of UniProt Q695T7 (whole entry, looked up): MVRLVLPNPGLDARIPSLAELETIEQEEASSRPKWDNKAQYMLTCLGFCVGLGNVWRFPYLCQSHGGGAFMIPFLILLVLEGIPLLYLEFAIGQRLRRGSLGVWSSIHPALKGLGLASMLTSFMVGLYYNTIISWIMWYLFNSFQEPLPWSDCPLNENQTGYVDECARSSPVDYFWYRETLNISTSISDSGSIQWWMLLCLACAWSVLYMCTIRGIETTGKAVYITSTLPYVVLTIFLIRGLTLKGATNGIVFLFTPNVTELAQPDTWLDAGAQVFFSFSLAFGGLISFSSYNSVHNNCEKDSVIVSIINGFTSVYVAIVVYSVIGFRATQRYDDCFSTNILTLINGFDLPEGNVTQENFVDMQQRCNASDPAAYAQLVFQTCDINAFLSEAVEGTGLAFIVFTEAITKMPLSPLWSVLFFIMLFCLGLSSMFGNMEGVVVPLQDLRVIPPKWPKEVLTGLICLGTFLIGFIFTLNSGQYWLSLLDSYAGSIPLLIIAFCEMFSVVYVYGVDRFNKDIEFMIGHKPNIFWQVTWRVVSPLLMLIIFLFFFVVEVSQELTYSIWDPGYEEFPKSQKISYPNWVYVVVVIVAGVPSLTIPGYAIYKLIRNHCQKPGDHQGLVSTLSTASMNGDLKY
# Technique: FLIPR membrane potential
# Cells: CHO-BC
# Tested at: concentration not given
# Setting: unit not given
# Reference: fraction of control
SMILES,remaining activity
COc1ccc(SCC(=O)NC(C)C)cc1,0.916
CC(C)NC(=O)COc1ccc(Cl)cc1,0.464
Cc1cc(NCC(=O)NC(C)C)cc(C)c1Br,0.0995
CC(C)NC(=O)COc1ccc2ccccc2c1,0.131
CC(C)NC(=O)CSc1ccc(Cl)cc1,0.225
CC(C)NC(=O)COc1cccc2ccccc12,0.217
Cc1cc(OCC(=O)NC(C)C)ccc1I,0.0873
CNC(=O)COc1cc(C)c(Cl)c(C)c1,0.561
CCNC(=O)COc1cc(C)c(Cl)c(C)c1,0.154
Cc1cc(OCC(=O)NC(C)C)ccc1Cl,0.2

# Series 4
# Compound: C[C@@H]1CN(c2ccc(-c3cc(C(=O)NCCOCCOCCOCCOCCOCCOCCNC(=O)/C=C/c4[nH]cc(C(=O)N[C@@H](CC(N)=O)c5ccc(F)c(Cl)c5)c4-c4ccc(Cl)cc4F)ccc3F)cc2NC(=O)c2ccc(F)cc2C(F)(F)F)C[C@H](C)N1C
# Read-out: thermal unfolding
# Technique: differential scanning fluorimetry
# Tested at: 5.5 µM
# Reading: higher = more unfolded
# WDR5: WD repeat-containing protein 5 (WDR5, Homo sapiens, UniProt P61964)
# DCAF1: DDB1- and CUL4-associated factor 1 (DCAF1, Homo sapiens, UniProt Q9Y4B6)
# Sequence of UniProt Q9Y4B6 (whole entry, looked up): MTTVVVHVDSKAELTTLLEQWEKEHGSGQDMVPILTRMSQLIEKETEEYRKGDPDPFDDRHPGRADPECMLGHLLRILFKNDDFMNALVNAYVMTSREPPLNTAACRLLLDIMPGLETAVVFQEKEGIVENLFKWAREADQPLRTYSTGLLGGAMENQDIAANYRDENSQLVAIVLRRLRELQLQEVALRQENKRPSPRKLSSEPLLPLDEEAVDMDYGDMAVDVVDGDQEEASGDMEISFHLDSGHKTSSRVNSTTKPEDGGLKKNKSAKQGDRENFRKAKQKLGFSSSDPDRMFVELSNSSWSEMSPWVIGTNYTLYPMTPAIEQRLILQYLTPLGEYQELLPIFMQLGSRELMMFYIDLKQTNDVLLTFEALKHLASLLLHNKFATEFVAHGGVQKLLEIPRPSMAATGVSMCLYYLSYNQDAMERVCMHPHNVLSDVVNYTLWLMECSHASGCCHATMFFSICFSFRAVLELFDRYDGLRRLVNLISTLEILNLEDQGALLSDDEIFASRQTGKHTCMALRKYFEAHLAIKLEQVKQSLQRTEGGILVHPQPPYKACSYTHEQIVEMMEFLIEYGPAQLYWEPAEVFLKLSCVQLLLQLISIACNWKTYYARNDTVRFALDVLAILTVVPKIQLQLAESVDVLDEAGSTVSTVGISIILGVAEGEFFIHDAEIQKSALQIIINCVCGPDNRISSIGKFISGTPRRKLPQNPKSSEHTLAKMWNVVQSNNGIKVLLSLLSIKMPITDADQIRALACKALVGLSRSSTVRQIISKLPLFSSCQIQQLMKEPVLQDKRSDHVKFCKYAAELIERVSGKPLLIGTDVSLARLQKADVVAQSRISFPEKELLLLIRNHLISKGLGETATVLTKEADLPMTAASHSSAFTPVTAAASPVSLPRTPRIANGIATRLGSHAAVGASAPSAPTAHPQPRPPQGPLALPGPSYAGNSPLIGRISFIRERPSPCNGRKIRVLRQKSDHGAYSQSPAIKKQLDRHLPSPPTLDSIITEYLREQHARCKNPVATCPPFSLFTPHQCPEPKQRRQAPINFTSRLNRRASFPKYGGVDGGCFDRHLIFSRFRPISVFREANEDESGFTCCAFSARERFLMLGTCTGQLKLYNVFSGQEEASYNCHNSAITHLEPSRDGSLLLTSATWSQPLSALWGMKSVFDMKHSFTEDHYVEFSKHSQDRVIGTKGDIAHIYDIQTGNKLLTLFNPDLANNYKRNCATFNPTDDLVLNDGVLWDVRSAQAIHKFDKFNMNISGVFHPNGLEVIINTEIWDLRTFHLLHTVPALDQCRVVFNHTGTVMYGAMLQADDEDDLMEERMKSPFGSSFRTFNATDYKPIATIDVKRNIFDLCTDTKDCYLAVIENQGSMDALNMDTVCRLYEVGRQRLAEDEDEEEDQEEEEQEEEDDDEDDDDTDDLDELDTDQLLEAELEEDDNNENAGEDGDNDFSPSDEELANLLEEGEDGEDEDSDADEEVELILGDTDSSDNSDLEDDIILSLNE
target,conditions,SYPRO Orange fluorescence [a.u.]
WDR5,44.6 °C,14500
DCAF1,70.61 °C,47600
DCAF1,49.6 °C,17800
DCAF1,80.41 °C,39700
WDR5,56.21 °C,16200
DCAF1,94.01 °C,29400
DCAF1,73.41 °C,45400
DCAF1,32.4 °C,9100
DCAF1,38.8 °C,11100
WDR5,82.81 °C,65100
DCAF1,50 °C,18100

# For quick reference, copied from above (series 2):
target,test,how to read,remaining binding [%]
"Ribosomal protein S6 kinase alpha-6, C-terminal kinase domain (RPS6KA6, Homo sapiens, UniProt Q9UK32)","binding, competition with immobilised ligand",,98
"Wee1-like protein kinase 2 (WEE2, Homo sapiens, UniProt P0C1S8)","kinase binding, KINOMEscan",reference: DMSO control,74
"Serine/threonine-protein kinase PAK 1 (PAK1, Homo sapiens, UniProt Q13153)","kinase binding, KINOMEscan",reference: DMSO control,95
"Serine/threonine-protein kinase NLK (NLK, Homo sapiens, UniProt Q9UBE8)","kinase binding, KINOMEscan",reference: DMSO control,100
"Mitogen-activated protein kinase kinase kinase 9 (MAP3K9, Homo sapiens, UniProt P80192)","kinase binding, KINOMEscan",reference: DMSO control,93
